Assay results collected from several papers.
Each numbered part is a random draw from the data of one study; scales do not carry over between parts. Substitutions count along the parent as printed.

Study 1 — method: DHFR PCA, deep sequencing; medium: yeast; with: (+)-ABA 0 µM; reference: wild-type fitted maximum; reading: higher = stronger binding; quantity: relative binding score
Target: ABI1, truncated, D143A, DHFR fusion (Arabidopsis thaliana)
Setting: methotrexate growth selection, single substitutions
Parent: PYL1, truncated, DHFR fusion (Arabidopsis thaliana); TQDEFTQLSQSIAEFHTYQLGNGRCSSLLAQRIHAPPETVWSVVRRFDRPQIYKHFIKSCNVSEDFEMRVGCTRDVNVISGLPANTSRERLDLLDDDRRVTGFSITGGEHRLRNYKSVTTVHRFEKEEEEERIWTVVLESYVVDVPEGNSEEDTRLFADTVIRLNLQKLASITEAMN; partner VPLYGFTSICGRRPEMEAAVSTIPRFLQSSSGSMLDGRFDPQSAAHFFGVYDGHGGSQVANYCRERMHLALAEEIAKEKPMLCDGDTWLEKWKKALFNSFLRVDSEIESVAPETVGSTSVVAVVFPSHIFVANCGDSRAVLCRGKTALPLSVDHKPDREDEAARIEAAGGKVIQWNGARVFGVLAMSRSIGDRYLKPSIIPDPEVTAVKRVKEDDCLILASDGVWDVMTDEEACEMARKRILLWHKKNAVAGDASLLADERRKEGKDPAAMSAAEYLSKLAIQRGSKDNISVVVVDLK
V44E: 1.18%
D144V: 3.21%
N77K: 49.6%
D65H: 7.8%
F124I: 56.2%
P50Q: -10.3%
P50I: -6.88%
E109F: -10.1%
I12V: 6.83%
S63R: 15.9%
K58I: -3.43%
N165V: 6.03%
E128H: 46.2%
F56W: -0.638%
A35M: 2.02%
P37S: 2.51%

Study 2 — target: CCNA2, cyclin fold, Cln2 fusion (human); method: yeast growth competition, sequencing; medium: yeast; setting: weak parent motif; reference: not given; reading: higher = stronger binding; quantity: normalised enrichment score
Parent: RP1L1 docking peptide (human); TLGLGPLSFTLED
E12A: -0.0237
L2A: -0.43
P6A: -0.581
L4A: -0.775
G5A: -0.564
S8A: -0.605
T10A: -0.358

Study 3 — method: RNA Bind-n-Seq; form: RNA; medium: in vitro; tested at: 365 nM; reference: no-protein control; reading: higher = stronger binding; quantity: RBNS enrichment (R)
Target: RNA binding protein fox-1 homolog 2, RRM domain, GST-SBP tag (RBFOX2, Homo sapiens, UniProt O43251-10, residues 100-194)
Setting: natural RNA segment, single round, ends assumed
Shared flanks, not repeated: GGGAGUUCUACAGUCCGACGAUC … UGGAAUUCUCGGGUGCCAA
Construct (chain): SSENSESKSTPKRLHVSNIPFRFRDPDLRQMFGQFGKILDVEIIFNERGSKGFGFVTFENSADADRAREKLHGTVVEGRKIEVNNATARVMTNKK
AGAUCCUGCUGUCUGGAUCAGUGUUCUGGCUGGAGGUGCUGGAUUCUCUGAUUUUGCCUCCUCACUCUGUGUCUGGCUUUGCUCCUGGGUCUUGGCCCUGGGCCAUAUGA: 0.556
UCGUAAACCCUGGCACUCCCUCCUUUAAUGGGGGCUCCCAUAAGACCCAUCUUUCCCUGCAGCUCACACCUACGCCCCAAAAGCAGUUCCCAAAGCAGUCAUGGUGCACA: 0.427
GUCAACAGUGUGGUUAUGACCUUUAUUUAUAUAAAAACCAAAUAUUUAGUCAAUUUACCGUGUCUUAAUUUAAUCUUUGUACACCUUCCAUUUUUAAGUGCUUAAAUGAG: 0.956
ACACUUGCAAAGACAGGGCUCUGACUCUGAUCCCUCCCAGGGAGCCUCCGACACCCAUCCCACUCCCAACCACCAAGACCCUGGGUUAGGGAAGAAGUUGUAUCUUAAGU: 0.443
CAGCUAUGCCCAGUGCUGCAUGGGACCCAUGUCUCCUGGGACAGAGGCCAUCUCUCUUCCAGAGAGAGGCAGCAUUGGCCCACAGGAUAAGCCUCAGGCCCUGGGAAACC: 0.311
UUUUGCAGAAAUAAGUGUUUGUAAGAAGUUUUACUAUAGGAAAGUCUACUUUUUUAAGCAGCAAAGUGUUCUGAGGAGUUGGUGUGUGAUGCCAAAGAGCUCAACGGGGC: 0.83
UGAAUGAAUUACAGUUUUUAUUACGGAAUCUCGCCGCUACCCCUGUUCCCCUCCUGUGUCCUUUUUCUCGUUCUUUCUUUCCUGUCCAGUGCAUGAUGUUUAAGGCCACA: 3.22
CACAAAAUUUAUGUACAGUGCAUAUUAUUGAUCAAUAAACUAAACUUGUUUUCCAAUAAAUUGUUAAAGCCUCUUUUGAGUAUCGCUGAAAGUUGGUUGCUCUGUCCUUU: 0.293
CCACGUGUAAGUCUCCAUUGCAGAAUUGUCGUGCUUUGAGAAAACACCUGAGGCAGUGUGGGAGUUGAACGACCCUGCUGUCCUUUUUAACCUGUGUUGUCCUAGACCCU: 0.257
UAGUCUGCUGCUUUCCUGGGUGGAUGAACCUCUUUAUUAUGGUAACUUCUGUGCUGCUUUGCCCCUAGCCAAGGCUCUCCUUCCCCAAGAGGUUAGCUUUGGCAUUGGAA: 0.369
GACCAUUAUAAGAAAAGAUAUAUGGAGUUGUAUCUUACUGGAAUUAAUAAACACUGCUUGACCACCGUGUUCUGUUUCAAUUUGUAACAGCUGUCCUAAUUUAAACUCAC: 0.733
GUUUAGUGUCGUUUGCCAUGGUAUUUCACAGUGAAACAUGGAUACUCUCCACACAUCAUUUACUUCAUGCUGUGUACUUAUGUACUGGUUUUUGCAUUUUACUCACUUGA: 0.625

Study 4 — target: NFIL3, bZIP domain (human); method: DHFR protein complementation; medium: yeast; reference: wild-type JUN-FOS pair; reading: higher = stronger binding; quantity: binding fitness
Setting: single substitutions, most at no-binding floor
Parent: JUN, bZIP domain (human); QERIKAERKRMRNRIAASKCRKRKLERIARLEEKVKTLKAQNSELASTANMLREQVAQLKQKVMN; partner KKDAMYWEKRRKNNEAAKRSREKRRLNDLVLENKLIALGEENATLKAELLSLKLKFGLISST
A29R: -1.4 natural log
L45Q: -1.51 natural log
K36R: -1.47 natural log
A40K: -1.3 natural log
S47D: -1.55 natural log
S47L: -1.45 natural log
L38K: -1.54 natural log
L38N: -1.47 natural log
K36E: -1.56 natural log
E33P: -1.49 natural log
E32Q: -1.4 natural log
E33L: -1.31 natural log
K34F: -1.63 natural log
V35Q: -1.51 natural log
L52F: -1.4 natural log
E54H: -1.57 natural log
Q55C: -1.5 natural log
S47V: -1.32 natural log

Study 5 — method: RNA Bind-n-Seq; form: RNA; medium: in vitro; tested at: 200 nM; setting: whole 134-nt RNA, ends assumed; with: 150 mM KCl; reference: input library; reading: higher = stronger binding; quantity: log2 enrichment
Target: Ras GTPase-activating protein-binding protein 1, full length (G3BP1, Homo sapiens, UniProt Q13283)
UniProt Q13283, sequence (whole entry, looked up): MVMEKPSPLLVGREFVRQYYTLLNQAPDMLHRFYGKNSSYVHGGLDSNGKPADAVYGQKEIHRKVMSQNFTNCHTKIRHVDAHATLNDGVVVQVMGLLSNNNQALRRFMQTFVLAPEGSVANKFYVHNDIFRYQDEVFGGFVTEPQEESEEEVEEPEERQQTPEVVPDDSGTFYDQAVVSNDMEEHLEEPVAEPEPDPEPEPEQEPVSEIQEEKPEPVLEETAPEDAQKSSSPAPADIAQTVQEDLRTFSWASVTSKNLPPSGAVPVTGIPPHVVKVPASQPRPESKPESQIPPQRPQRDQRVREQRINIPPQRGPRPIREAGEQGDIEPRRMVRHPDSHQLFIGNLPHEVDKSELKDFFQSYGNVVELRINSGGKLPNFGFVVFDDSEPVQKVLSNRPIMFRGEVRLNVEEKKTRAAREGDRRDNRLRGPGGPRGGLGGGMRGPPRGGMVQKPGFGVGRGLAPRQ
Shared flanks, not repeated: GGGAGUUCUACAGUCCGACGAUC … UGGAAUUCUCGGGUGUCAAGG
CUCAAGUCCUGUGCUACACAUCGUAUGUACCGAAUCGGGGUGGGGUGGUGGGGAAAGUAUUAUGUUACGCCGUUCGGAUCUGCACUUCCA: 0.889
CCUGUGCUACACAUCGUAUGUACCGAAUCGGGGAAAGGGGUUUUUGGGGAAAAAAAGGGGAAAGUAUUAUGUUACGCCGUUCGGAUCUGC: 0.094
UGGCCGUGGUGGCAUGCGGGGAGGAAGAGGUGGCCUCAUGGAUCGUGGUGGUCCCGGUGGAAUGUUCAGAGGUGGCCGUGGUGGAGACAG: 0.51
UUAAGAAUUUGCUUAAAGAAGUGCGGAUCUAUGCACAGAAAUUUAUUGAUCGAGGAAAGGAUUUUAACUUGGAGUUGGCAAUUAAAACAC: 0.211
UCCUGUGCUACACAUCGUAUGUACCGAAUCGGGGAGGGGAAAAAAAGGGGAAAAAGGGGAAAGUAUUAUGUUACGCCGUUCGGAUCUGCA: 0.484
UCCUGUGCUACACAUCGUAUGUACCGAAUCGGGCCCCCCGGGCCCCCCGGGCCCCCCGGGAAAGUAUUAUGUUACGCCGUUCGGAUCUGC: -0.244
AGUCCUGUGCUACACAUCGUAUGUACCGAAUCGGGGCCCCGGGGCCCCGGCCCCGGGAAAGUAUUAUGUUACGCCGUUCGGAUCUGCACU: 0.329
UAACUUUAGAGGAGGAUCUGAUGGAUAUGGCAGUGGACGUGGAUUUGGGGAUGGCUAUAAUGGGUAUGGAGGAGGACCUGGAGAUGGCAA: 0.286
ACCAUGCAGGUGGGCAUCUUUGGGAAAUGGGGCAAGGGGGGGAUAGGGAGGGGGGUAACACUUUGGGAACAGGUGGUCCCAGGUCGUUUC: 1.53
UGGCCCUGGUGGCAUGCGGGGAGGAAGAGGUGCCCUCAUGGAUCGUGGUGGUCCCGGUGGAAUGUUCAGAGGUGGCCGUGGUGGAGACAG: 0.414
CAAGUCCUGUGCUACACAUCGUAUGUACCGAAUCGGGAAAGGAAAGGGGAAAGGGGAAAGUAUUAUGUUACGCCGUUCGGAUCUGCACUU: 0.327
UAACUUUAGAGGAGGAUCUGAUGGAUAUGGCAGUGGACGUGAAUUUGGGGAUGGCUAUAAUGGGUAUGGAGGAGGACCUGGAGGUGGCAA: 0.428
UCAAGUCCUGUGCUACACAUCGUAUGUACCGAAUCGGUUUGGGUUUGGUUUGGGAAAGUAUUAUGUUACGCCGUUCGGAUCUGCACUUCC: -0.651
UAACUUUAGAGCAGGAUCUGAUGGAUAUGGCAGUGGACGUGGAUUUGGGGAUGGCUAUAAUGGGUAUGGAGGAGGACCUGGAGGUGGCAA: 0.514

Excerpt of the above (study 3):
UUUUGCAGAAAUAAGUGUUUGUAAGAAGUUUUACUAUAGGAAAGUCUACUUUUUUAAGCAGCAAAGUGUUCUGAGGAGUUGGUGUGUGAUGCCAAAGAGCUCAACGGGGC: 0.83
UGAAUGAAUUACAGUUUUUAUUACGGAAUCUCGCCGCUACCCCUGUUCCCCUCCUGUGUCCUUUUUCUCGUUCUUUCUUUCCUGUCCAGUGCAUGAUGUUUAAGGCCACA: 3.22
CACAAAAUUUAUGUACAGUGCAUAUUAUUGAUCAAUAAACUAAACUUGUUUUCCAAUAAAUUGUUAAAGCCUCUUUUGAGUAUCGCUGAAAGUUGGUUGCUCUGUCCUUU: 0.293
CCACGUGUAAGUCUCCAUUGCAGAAUUGUCGUGCUUUGAGAAAACACCUGAGGCAGUGUGGGAGUUGAACGACCCUGCUGUCCUUUUUAACCUGUGUUGUCCUAGACCCU: 0.257
UAGUCUGCUGCUUUCCUGGGUGGAUGAACCUCUUUAUUAUGGUAACUUCUGUGCUGCUUUGCCCCUAGCCAAGGCUCUCCUUCCCCAAGAGGUUAGCUUUGGCAUUGGAA: 0.369
